Results gathered from unrelated publications.
Numbers after ± are the reported error.
SCTR: Secretin receptor (SCTR, Homo sapiens, UniProt P47872)
POLB: DNA polymerase beta (POLB, Homo sapiens, UniProt P06746)

CN(C)c1cc2ccccc2c(N)n1 — result for binding: “no binding” ((CUG) RNA; isothermal titration calorimetry; concentration not given).
COc1ccc(C(=O)c2c(C(=O)NCCCN(C)C)oc3ccc(Cl)cc3c2=O)cc1OC has a potency ratio of 41 fold (Growth hormone secretagogue receptor type 1 (GHSR, Homo sapiens, UniProt Q92847); calcium mobilization; HEK293 cells; relative to: binding IC50 over calcium EC50).
Under “tau K18 fibril dissociation”, CCC1CC2C(C)=CC3C(=O)CCCC3C=CC(C)=CC2C(=O)O1 (stereo not shown) is recorded as 41.4% (Microtubule-associated protein tau, K18 fragment, aggregated (MAPT, Homo sapiens, UniProt P10636); thioflavin T fluorescence; 1000 µM, preaggregated 3 days; relative to: before treatment).
COc1ccc(-c2cc(C(F)(F)F)nc(S(=O)(=O)CCCC(=O)Nc3ccc(F)cc3F)n2)cc1OC has an Emax of 137 ± 11% (SCTR; increase of tracer binding, TR-FRET; HEK293 membranes; together with: Fluo-Sec 6 nM).
The Km of Cc1cc(=O)oc2c(F)c(OP(=O)(O)O)c(F)cc12 is reported as 177 µM (Tyrosine-protein phosphatase non-receptor type 11 (PTPN11, Homo sapiens, UniProt Q06124, E76A); enzyme activity, substrate).
CCCCCCc1ccc(Oc2ccc(Oc3cccc(=O)[nH]3)cc2)c(O)c1 gave a residence time of 345 min (Enoyl-[acyl-carrier-protein] reductase [NADPH] FabI (Staphylococcus aureus, UniProt Q6GI75); binding).
O=C(Nc1cccnc1)c1ccc(-c2ccc(Cl)cc2)o1 gave an activation of no more than 1.5 fold (Nuclear receptor subfamily 4 group A member 2, ligand binding domain (Homo sapiens, UniProt P43354); reporter gene, agonist, Gal4-Nurr1 hybrid reporter; HEK-293T; 3 µM, crude library product; relative to: vehicle (0.1% DMSO)).
The kpol/Kd of Cc1cn([C@H]2C[C@H](O)[C@@H](COP(=O)(O)OP(=O)(O)C(Br)(Br)P(=O)(O)O)O2)c(=O)[nH]c1=O is reported as 4000 ± 1000 M⁻¹ s⁻¹ (POLB; substrate, single turnover kinetics).
CNc1ccccc1C(=O)O[C@H]1[C@@H](O)[C@H](n2ccc(=O)[nH]c2=O)O[C@@H]1COP(=O)(O)OP(=O)(O)O: “potency loss on γ-phosphate deletion” 5 to 30 fold (ADCY5 (Canis lupus, UniProt P30803); Sf9 membranes; relative to: NDP over NTP).
For N#Cc1cccc(-c2ccc(=O)n(Cc3cccc(-c4ncc(OCC5CCN(CC(=O)N6CCN(c7ccc8c(c7)C(=O)N(C7CCC(=O)NC7=O)C8=O)CC6)CC5)cn4)c3)n2)c1 (stereo not shown), the Dmax was greater than 99% (Hepatocyte growth factor receptor (MET, Homo sapiens, UniProt P08581); degrader; EBC-1; concentration not given).
The Emax of CCCCCCCC/C=C\CCCCCCCC(=O)O[C@H]1C=CCO[C@@H]1COP(=O)(O)S (stereo partly shown) is reported as 39% (Lysophosphatidic acid receptor 2 (LPAR2, Homo sapiens, UniProt Q9HBW0); agonist, TGFα shedding).
CNc1ccccc1C(=O)O[C@H]1C[C@H](n2cnc3c(N)ncnc32)O[C@@H]1COP(=O)(O)OP(=O)(O)O: “T∆S of ligand binding” -2.9 ± 0.4 kcal/mol (Unconventional myosin-Va (Gallus gallus, UniProt Q02440, D297C/G292C/I296C/S293C/V295G); van't Hoff analysis; concentration not given, together with: 2 mM Mg2+).
For Nc1nc2c(ncn2[C@H]2C[C@H](O)[C@@H](COP(=O)(O)OP(=O)(O)[C@H](F)P(=O)(O)O)O2)c(=O)[nH]1, the stereospecificity increase was roughly 1.5 fold (DNA polymerase beta (POLB, Homo sapiens, UniProt P06746, R183A); pre-steady-state kinetics; opposite dC; relative to: mutant over wild type).
COc1ccc(-c2cc(C(F)(F)F)nc(NCc3ccc(F)cc3)n2)cc1OC gave an Emax of 84 ± 9.1% (SCTR; cAMP accumulation, positive allosteric modulator; CHO-K1 overexpressing SCTR; together with: EC10-EC20 secretin peptide mix; relative to: EC95 peptide mix).
The kpol of Nc1nc2c(ncn2[C@H]2C[C@H](O)[C@@H](COP(=O)(O)OP(=O)(O)C(Cl)(Cl)P(=O)(O)O)O2)c(=O)[nH]1 is reported as 0.0006 ± 0.0001 s⁻¹ (POLB; nucleotide incorporation rate, substrate, single-turnover kinetics; single-nucleotide gapped DNA; 37 °C, wild type, misincorporation, together with: dGTP opposite template A).
The remaining activity of CC(=O)N[C@@H](Cc1c[nH]c2ccccc12)C(=O)N[C@@H](Cc1c[nH]c2ccccc12)C(=O)N[C@@H](Cc1c[nH]c2ccccc12)C(=O)N[C@@H](Cc1c[nH]c2ccccc12)C(=O)N[C@@H](Cc1c[nH]c2ccccc12)C(=O)N[C@@H](Cc1c[nH]c2ccccc12)C(=O)N[C@@H](Cc1c[nH]c2ccccc12)C(=O)NCCCC[C@@H]1NC(=O)[C@H](CCCNC(=N)N)NC(=O)[C@H](CCCNC(=N)N)NC(=O)[C@H](CCCNC(=N)N)NC(=O)[C@H](CCCNC(=N)N)NC(=O)[C@H](CCCNC(=N)N)NC1=O is reported as 7% (Cyclin-dependent kinase 2, with cyclin A1 (CDK2, Homo sapiens, UniProt P24941); kinase activity, Reaction Biology radiometric; concentration not given, together with: ATP 200 µM; relative to: DMSO).
The signal attenuation of CCC1(CO)CCCN(C(=O)c2ccc(CSC)o2)C1 (stereo not shown) is reported as 19.7 ± 1.2% (DNA dC->dU-editing enzyme APOBEC-3A (Homo sapiens, UniProt P31941); binding, 1H CPMG NMR).
O[C@@H]1[C@@H](O)[C@H](O[C@@H]2OC[C@@H](O)[C@H](O)[C@H]2O)C[C@H]2O[C@@H]12 gave a kinact/Ki of 700 M⁻¹ s⁻¹ (Exo-1,4-beta-xylosidase xlnD (xlnD, Emericella nidulans, UniProt Q5BAS1); covalent inhibitor; Aspergillus nidulans; pH 4.5).
The Emax of COc1ccccc1-c1cc(C(F)(F)F)nc(S(=O)(=O)CCCC(=O)Nc2ccc(F)cc2F)n1 is reported as 149 ± 23% (SCTR; increase of tracer binding, TR-FRET; HEK293 membranes; together with: Fluo-Sec 6 nM).
C=CCC1NC(=O)C=CC(=O)NC(C(N)=O)CCNC(=O)C(CCCNC(=O)c2cnccn2)NC(=O)C(Cc2ccco2)NC1=O (stereo not shown) gave an enrichment factor of 1.4 (Vascular endothelial growth factor receptor 2 (KDR, Homo sapiens, UniProt P35968); DNA-templated library selection; one selection round).
For COc1c(OCCCCN2CCCC2)cc(O)c2c(=O)cc(-c3ccccc3)oc12, enzyme activity read “decreased” (Phosphoglycerate kinase 1 (PGK1, Homo sapiens, UniProt P00558); inhibitor, ATP production; HEK-293T; 0, 2, 4, 6 µM, 12 h).
With COc1cc(C(=O)NC2CCC(N3CCN(CC4CCC5(CCCC5)C4)CC3)CC2)c(F)cc1Nc1ncc2c(n1)N(C1CCCC1(F)F)CC(F)(F)C(=O)N2C (stereo not shown) the inhibition was 1.81% (BDNF/NT-3 growth factors receptor (NTRK2, Homo sapiens, UniProt Q16620); cell-free assay, TR-FRET; 10 µM).
With CC(=O)N[C@@H](CC(=O)O)C(=O)N[C@@H](CCC(=O)O)C(=O)N[C@H](C(=O)N[C@@H](CC(=O)O)C(=O)Nc1ccc2c(C)cc(=O)oc2c1)C(C)C the Vmax was 476 ± 38.7 RFU/min (Caspase-10 (CASP10, Homo sapiens, UniProt Q92851); substrate cleavage, substrate, fluorogenic AMC release; enzyme 0.25 activity units/µL).
Nc1nc2c(ncn2C2CC(O)C(COP(=O)(O)OP(=O)(O)C(Cl)P(=O)(O)O)O2)c(=O)[nH]1 (mixture of isomers) gave a kpol of 0.007 ± 0.002 s⁻¹ (POLB; nucleotide incorporation rate, substrate, single-turnover kinetics; single-nucleotide gapped DNA; 37 °C, wild type, misincorporation, together with: dGTP opposite template A).
C[n+]1cn(C2OC(COP(=O)(O)OP(=O)([O-])OP(=O)(O)OCC3OC(n4cnc5c(=O)[nH]c(N)nc54)C(O)C3O)C(O)C2O)c2nc(NCc3ccccc3)[nH]c(=O)c21 (stereo not shown) gave a relative affinity of roughly 2.5 (Eukaryotic translation initiation factor 4E (Eif4e, Mus musculus, UniProt P63073); differential scanning fluorimetry; relative to: m7GpppG).
With CN1CCN(CC(=O)N2N=C3/C(=C/c4ccccc4)CCCC3C2c2ccccc2)CC1 (mixture of isomers) the maximal activation was 98% (Polyunsaturated fatty acid lipoxygenase ALOX15 (ALOX15, Homo sapiens, UniProt P16050); enzyme activity, activator; together with: linoleic acid 10 µM).
For Nc1nc2c(ncn2C2CC(O)C(COP(=O)(O)OP(=O)(O)C(F)(Cl)P(=O)(O)O)O2)c(=O)[nH]1 (mixture of isomers), the kpol/Kd was 2.2 ± 0.96 M⁻¹ s⁻¹ (POLB; nucleotide incorporation, substrate, single turnover kinetics; dG misincorporation opposite A).
For CC[C@H](C)[C@H](NC(=O)[C@H](CCC(N)=O)NC(=O)[C@@H](NC(=O)[C@@H]1CCCN1[C@@H]1CN(C(=O)[C@H](CCCCN)NC(=O)[C@H](CC(N)=O)NC(=O)[C@@H](NC(=O)[C@@H](NC(=O)[C@H](CCC(N)=O)NC(=O)[C@@H](N)C(C)C)[C@@H](C)CC)[C@@H](C)CC)CC[C@H]1NS(=O)(=O)c1ccc(C)cc1)C(C)C)C(=O)N[C@H](C(=O)N[C@@H](Cc1ccc(O)cc1)C(=O)N[C@@H](CCCCN)C(N)=O)C(C)C, aggregation inhibition read “inhibited” (Microtubule-associated protein tau (MAPT, Homo sapiens, UniProt P10636); inhibitor, ThT fluorescence; 5-fold over protein, together with: heparin).
